Experimental data pooled from the literature.
A part holds a random share of what one study measured.

Block 1 — method: RNA Bind-n-Seq; molecule type: RNA; medium: in vitro; tested at: 100 nM; setting: RNA with constant flanks, ends assumed; baseline: input RNA pool; direction: higher = stronger binding; endpoint: bound/input enrichment
Target: RING finger protein unkempt homolog, zinc fingers 1-6, SBP tag (UNK, Homo sapiens, UniProt Q9C0B0, residues 30-357)
Chain of UniProt Q9C0B0 (30-357, looked up): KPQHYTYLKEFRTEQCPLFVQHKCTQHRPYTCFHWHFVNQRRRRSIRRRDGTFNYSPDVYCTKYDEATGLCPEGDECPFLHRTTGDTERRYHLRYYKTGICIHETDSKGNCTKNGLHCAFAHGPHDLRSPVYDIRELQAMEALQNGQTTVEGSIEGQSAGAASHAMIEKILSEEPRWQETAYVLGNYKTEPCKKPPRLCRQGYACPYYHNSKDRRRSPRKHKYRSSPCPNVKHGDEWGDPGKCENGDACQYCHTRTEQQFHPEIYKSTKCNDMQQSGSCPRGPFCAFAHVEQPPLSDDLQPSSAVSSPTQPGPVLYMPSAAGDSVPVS
Sequence = GGGAGUUCUACAGUCCGACGAUCAUCCCUCAGUGACAGUAUGCCUUCUGCCGCAGAUUCUCACUCCCGUCAUUUUUCUGAAUUCCGUUGUUCUGACCCCGAAAGCAUGAAAACUUCUUGCCGUCAUGGUUCCAGUGAUUAUCACAACAGAGGAUUGAGCAUCA; value = 0.288 ratio
Sequence = GGGAGUUCUACAGUCCGACGAUCAUUGAACAAAAAUGUUUCCACUGGCUUUUGCCUGUAAGAAAAAAAAUGUACCCGAGCACACCGAGCUUUUUAACCGCACUAACCAAUGCCUUUUCCGAUGUAUUUUUGAUGUAUAUAUCUCAACAGAGGAUUGAGCAUCA; value = 0.416 ratio
Sequence = GGGAGUUCUACAGUCCGACGAUCUUACAGUCAUUGAUGGACUCUAUUUUUUUAUUAUUACUUGGACCUUGGUCGUUUUUAUACCCGCAAAAUGUCUUGUUUUAAUUUGUGUUUUUUGGGGGGAGGGAGGGAGUGAACUUGCUGCAACAGAGGAUUGAGCAUCA; value = 1.3 ratio

Block 2 — method: RNA Bind-n-Seq; molecule type: RNA; medium: in vitro; tested at: 365 nM; baseline: no-protein control; direction: higher = stronger binding; endpoint: RBNS enrichment (R)
Target: RNA binding protein fox-1 homolog 2, RRM domain, GST-SBP tag (RBFOX2, Homo sapiens, UniProt O43251-10, residues 100-194)
Setting: natural RNA segment, single round, ends assumed
Residues (chain): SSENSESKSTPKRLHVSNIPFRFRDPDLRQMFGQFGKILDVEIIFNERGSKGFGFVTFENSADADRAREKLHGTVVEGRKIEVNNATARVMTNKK
Sequence = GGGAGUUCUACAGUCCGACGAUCUAAGGACACGGGCCCCCUUCCGUCCUCGGGCUCCCGGUCCCCUCCUAUUUAUGGGGUCUGACCAACUGCACCCACUCCCUAAUAAAUUCAUUCUCCUUGGGAGCCUCCUUUGGAAUUCUCGGGUGCCAA; value = 0.575
Sequence = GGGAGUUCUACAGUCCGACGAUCAGGAUCCCUCCUGAAAUCUCCUACUUCUUGUCUGCCACUCACUCUUGAGGACACUGGGCCCCCAUGGAAUCCCUCCAUGCCCUAGCAUGGCUAAAUGCUGAAGGUGGAGGUGGAAUUCUCGGGUGCCAA; value = 0.747
Sequence = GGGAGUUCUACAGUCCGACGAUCACUAUAGGUUAUUCUCUUUCCUUUUCUAUGUUGUGUUUAUUCUAUUUAUUCUCUACAAUAUAUAAAAUGUAUUUGUUCUCUACAAUAAAUGUGUUUAUUCUCUACAAUAUUGGAAUUCUCGGGUGCCAA; value = 0.494
Sequence = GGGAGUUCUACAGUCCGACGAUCACCCUCAAAGAUGCUACUGGGCUUCCUGUGCAUCGCAUUGCUAAAGAGAACUGAUUUCCUAGCAUUCUUCCCUAGUAAAAUCUUUCCCAAUAGAACAGUAUGUUCCCUUAUGGAAUUCUCGGGUGCCAA; value = 1.36
Sequence = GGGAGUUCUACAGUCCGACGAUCUGACAGCUGGAGCUAUAUGGAUGGGUGAUGAGAGACGUUCCCCCAUCCUGUGUCUCCUGCUGUGUGGACACAUGUCACUCCUGCUCCACAUGCCAACAUGGUUCAUUUCCUGGAAUUCUCGGGUGCCAA; value = 0.704
Sequence = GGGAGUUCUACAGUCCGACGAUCUGCAGGCUUUGAAACAGCCAACAGAUCCCCUUAGCUCUCUGUCAGUCACGAAGCUAUAUGCCAGGCUGCAAAGGAUGUCAAUAGCAUGUGGCAAUGGGGGUUUUUAUUGCUGGAAUUCUCGGGUGCCAA; value = 1.18
Sequence = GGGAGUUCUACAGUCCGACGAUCAUAUUCAAAGUGCAAUUCGCGUCUAGAUUAUCCACACAAUUUCACUAAUUGAAAAAUAUCAAAUUUACUAUUAUAAUGUAAGAGAGAAAUAUAGGUCAUAACUUCGGCACUGGAAUUCUCGGGUGCCAA; value = 0.293
Sequence = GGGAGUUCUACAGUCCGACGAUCGGUGACACAAACCAGUUUAUUGGAGAACAGCCUGGACAAAGGCCCAUAGGUAGGUAAAAUAGUAUGGGAGGGAGGCAAUGAAGAAAUCAGUUCCCAUGGAGUUGUGACAGUGGAAUUCUCGGGUGCCAA; value = 0.675
Sequence = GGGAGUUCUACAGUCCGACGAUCGAAUCCAGGUUAUAGUGCCUUCGACGUCUCGGUUCCCCGGAAGGAUGCUCCUUCCCUGAAUAUGCAGUAGAGCUGUGCCACAUGCCCUUUGAAGAUCUUCAUGGCUGCUGUGGAAUUCUCGGGUGCCAA; value = 0.243
Sequence = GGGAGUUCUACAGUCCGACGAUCUCAGAAUAUGCUCAUCCACUCCUUCAUCAUCCCACUAUCCGAGUCCUACUUCGUUCCCCCUUUGUAAGUCUCUGGAGGAUGUGACCAAGGUCUCCCGUGAGUGUCUGUCGUGGAAUUCUCGGGUGCCAA; value = 0.264
Sequence = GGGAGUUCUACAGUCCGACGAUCUGCUGCAUUGGAGAUCACAUCCUUUCCCUGUGUUGCCCCCAUUUCUCUGCUGCUUCUCUGGCUUGUUUCCUACAGCGGGGGCCUGUGGGAUUGAGUCUUGAGGAAUUCUCUGGAAUUCUCGGGUGCCAA; value = 2.4
Sequence = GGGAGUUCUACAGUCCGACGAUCUAUGAAUAAUGCUCAUUUUCACAGUCAGAAUAGCUUUAAAAUAUGGUUGAAUUUGAUACACACAGGAAGUUUUCUUGAAGAACAAUCCUUUCGCUUUUCUUUUUUCUUGAUGGAAUUCUCGGGUGCCAA; value = 0.812

Block 3 — method: protein-binding microarray; molecule type: double-stranded DNA, one strand shown; medium: in vitro; tested at: 250 nM; setting: 60-bp whole probe; added: salmon DNA 0.4 mg/ml; baseline: random background probes; direction: higher = stronger binding; endpoint: log fluorescence; shared flanks, not repeated: GCCTAGCAC … GTCTTGATTCGCTTGACGCTGCTG
Target: Interferon regulatory factor 7, full length, phosphomimetic (IRF7, Homo sapiens, UniProt Q92985, residues 1-503, S101K/S471D/S472D/S475D/S476D/S477D/S483D/S484D/S487D)
Residues (chain): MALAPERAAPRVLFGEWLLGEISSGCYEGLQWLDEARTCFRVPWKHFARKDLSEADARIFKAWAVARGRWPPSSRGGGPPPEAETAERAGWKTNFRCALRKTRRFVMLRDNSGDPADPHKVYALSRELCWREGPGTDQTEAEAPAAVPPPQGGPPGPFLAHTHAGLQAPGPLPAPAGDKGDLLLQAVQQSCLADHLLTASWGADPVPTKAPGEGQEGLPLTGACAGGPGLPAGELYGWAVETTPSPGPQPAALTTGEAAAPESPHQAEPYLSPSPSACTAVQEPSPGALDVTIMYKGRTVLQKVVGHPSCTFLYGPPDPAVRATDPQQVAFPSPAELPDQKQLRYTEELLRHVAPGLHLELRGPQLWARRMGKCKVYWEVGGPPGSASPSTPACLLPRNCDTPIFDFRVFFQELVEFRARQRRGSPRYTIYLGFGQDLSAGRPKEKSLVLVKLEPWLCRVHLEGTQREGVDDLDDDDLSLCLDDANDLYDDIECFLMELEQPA
Sequence = GACGATCTCAGATTGGAGACGTGCTAG; value = -0.111 z-score
Sequence = GAAGGTTTCGGTTCCGGGACGTGCTAG; value = 12.3 z-score
Sequence = GACGTTATCGGGTATCGGGACGTGCTA; value = 0.000916 z-score
Sequence = TTAGCTTTCGGTTTCGGTTAGTGCTAG; value = 10.8 z-score
Sequence = GCTTTTATGGTATTTTTTTCGTGCTAG; value = 1.28 z-score
Sequence = GACGATATCAGGCTCGAGACGTGCTAG; value = 0.175 z-score
Sequence = TCAGCCAGCTCTTTCGTACTGTGCTAG; value = -0.774 z-score
Sequence = GACAGTATCGACACTGGGGACGTGCTA; value = -0.316 z-score
Sequence = GACGGTATCAGACTGGAGACGTGCTAG; value = -0.24 z-score
Sequence = GACGGATCCGGTTTCGGGACGTGCTAG; value = 4.97 z-score
Sequence = TTAGGACTGGGTCTCGGGTAGTGCTAG; value = 0.0598 z-score
Sequence = TTAGATATCGGTCTCGATTAGTGCTAG; value = 1.91 z-score
Sequence = GACAGTTTCCTACTGCTGACGTGCTAG; value = 1.58 z-score
Sequence = GACGATTTCAGTATTGAGACGTGCTAG; value = 0.286 z-score
Sequence = TTAGGTCTCGGAGTGGGTTAGTGCTAG; value = 0.105 z-score
Sequence = TTAGGTATCCTTTTCATTTAGTGCTAG; value = 1.47 z-score
Sequence = TACTATATGCATGTAAATAAGTGCTAG; value = 0.32 z-score
Sequence = TCTCTTTCCAACTCTGTTTTCGTGCTA; value = 2.52 z-score
Sequence = TCTATTTTCTGAATGTCTTCGTGCTAG; value = 2.01 z-score

Block 4 — method: protein binding microarray; molecule type: double-stranded DNA, one strand shown; medium: in vitro; tested at: not given; baseline: not given; direction: higher = stronger binding; endpoint: E-score
Target: Histone acetyltransferase KAT6A, winged helix 2, GST fusion (KAT6A, Homo sapiens, UniProt Q92794, residues 85-181)
Setting: 8-mer, flanks averaged, mean of 2 arrays, mostly near background
Target sequence (chain): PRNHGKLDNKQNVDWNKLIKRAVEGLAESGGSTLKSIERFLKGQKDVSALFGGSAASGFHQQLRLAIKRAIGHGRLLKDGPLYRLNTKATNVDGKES
Sequence = AATACGTC; value = -0.165
Sequence = CGCGGCAG; value = 0.134
Sequence = CGCCACCC; value = 0.0618
Sequence = ATCCTAAA; value = -0.158
Sequence = GAGGGATA; value = -0.0806
Sequence = AAAACTAA; value = 0.153
Sequence = CAGTCGAG; value = -0.0387
Sequence = CGGGACCC; value = 0.173
Sequence = ATTGCTTC; value = -0.00492
Sequence = CGTGTGCA; value = -0.108
Sequence = ACCAGGAT; value = -0.0582
Sequence = ATGAGTGC; value = -0.128
Sequence = CCTTTTCG; value = 0.108
Sequence = CCCAAGGC; value = 0.0175
Sequence = GCGTGGAA; value = -0.103
Sequence = ACTACCAG; value = -0.263
Sequence = GGGAGGGA; value = 0.175
Sequence = CCCAAAAG; value = 0.19

Excerpt of the above (block 3):
Sequence = GCTTTTATGGTATTTTTTTCGTGCTAG; value = 1.28 z-score
Sequence = GACGATATCAGGCTCGAGACGTGCTAG; value = 0.175 z-score
Sequence = TCAGCCAGCTCTTTCGTACTGTGCTAG; value = -0.774 z-score
Sequence = GACAGTATCGACACTGGGGACGTGCTA; value = -0.316 z-score
Sequence = GACGGTATCAGACTGGAGACGTGCTAG; value = -0.24 z-score
